Published values from different studies.
Values joined by “and” are separate records of one study, mostly repeats; a detail may differ.
Cell line: HOP-62

| SMILES | test | conditions | scale | quantity | result |
| --- | --- | --- | --- | --- | --- |
| O=C(Nc1nnc2n3c(nc(-c4ccc(Cl)cc4)c1-2)SCC3=O)c1ccccc1 | SRB | 10 µM, NCI60 single-dose screen | relative to: untreated | cell growth | 85.5% |
| CCCCc1n(Cc2ccc3ccccc3c2)c2ccccc2[n+]1Cc1ccc2ccccc2c1.[Br-] | NCI60 five-dose screen | – | – | TGI | 2.55 µM |
| CCCCN1CCN(c2ccc3[nH]c(-c4ccc5[nH]c(-c6cc(OC)c(OC)c(OC)c6)nc5c4)nc3c2)CC1 | SRB | 10 µM, 48 h | – | growth percent | 61.4% |
| CSc1nc(-c2ccc(Cl)cc2)c2c(NC(=O)c3ccccc3)nnc-2[nH]1 | SRB | 10 µM, NCI60 single-dose screen | relative to: untreated | cell growth | 81.2% |
| CCCCN1CCN(c2ccc3nc(-c4ccc5nc(-c6cc(OC)ccc6OC)[nH]c5c4)[nH]c3c2)CC1 | SRB | 10 µM, 48 h | – | growth percent | 99.9% |
| Cc1cc(=O)[nH]c(=O)n1Cc1cn(-c2c3ccccc3nc3ccccc23)nn1 | NCI60 single-dose screen | 10 µM | – | growth percentage | 95.6% |
| CCCCCCCCCCCCCCCCCCOc1ccc(CC(=O)OCC[N+]2(C)CCOCC2)cc1 | SRB | 10 µM | – | growth inhibition | < 0% |
| Cn1cncc1C1=CN(c2ncnc3[nH]cnc23)CCS1 | – | lung cancer | – | TGI | 120 µM |
| O=C1NC(c2ccccc2)(c2ccccc2)C(=O)N1Cc1cn(-c2c3ccccc3nc3ccccc23)nn1 | NCI60 single-dose screen | 10 µM | – | growth percentage | 87.5% |
| CCCN1CCN(c2ccc3[nH]c(-c4ccc5[nH]c(-c6cc(OC)c(OC)c(OC)c6)nc5c4)nc3c2)CC1 | SRB | 10 µM, 48 h | – | growth percent | 84.3% |
| Cc1n[nH]c2nc(-c3ccc(Cl)cc3)c3c(NC(=O)c4ccccc4)nnc-3n12 | SRB | 10 µM, NCI60 single-dose screen | relative to: untreated | cell growth | 101% |
| CCCCCCCCCCCCCCCCCCOc1ccc(CC(=O)OCC[N+](C)(C)C)cc1 | SRB | 10 µM | – | growth inhibition | < 0% |
| CCCN1CCN(c2ccc3[nH]c(-c4ccc5[nH]c(-c6ccc(C(F)(F)F)cc6)nc5c4)nc3c2)CC1 | SRB | 10 µM, 48 h | – | growth percent | -62.6% |
| COC(=O)/C=C1\C(=O)C=C2C3CC4CC(CCC4(C)N21)C3(C)NC(C)=O (stereo not shown) | cell growth, NCI screen | – | – | IC50 | 19.8 µM |
| CCCCN1CCN(c2ccc3[nH]c(-c4ccc5[nH]c(-c6ccc(OCC)c(OCC)c6)nc5c4)nc3c2)CC1 | SRB | 10 µM, 48 h | – | growth percent | -69.7% |
| C#C[C@@]1(O)[C@@H](CO)O[C@@H](n2ccc3c(N)ncnc32)[C@@H]1O | SRB | NCI-60 screen | – | TGI | 7.91 µM |
| CCCCN1CCN(c2ccc3[nH]c(-c4ccc5[nH]c(-c6ccc(C(F)(F)F)cc6)nc5c4)nc3c2)CC1 | SRB | 10 µM, 48 h | – | growth percent | -78.5% |
| Cc1cc2c(cc1C)[n+](Cc1ccc3ccccc3c1)cn2Cc1ccc2ccccc2c1.[Br-] | NCI60 five-dose screen | – | – | TGI | 2.47 µM |
| S=C([S][Au-][P+](CCCCCC[P+]([Au-][S]C(=S)n1cccn1)(c1ccccc1)c1ccccc1)(c1ccccc1)c1ccccc1)n1cccn1 | cell growth, NCI-60 screen | non-small cell lung cancer | – | log10 TGI | -4.37 |
| NNc1nc(-c2ccc(Cl)cc2)c2c(NC(=O)c3ccccc3)nnc-2[nH]1 | SRB | 10 µM, NCI60 single-dose screen | relative to: untreated | cell growth | 95.5% |
| COCCOCCOCc1n(Cc2ccc3ccccc3n2)c2ccccc2[n+]1Cc1ccc2ccccc2c1.[Br-] | NCI60 five-dose screen | – | – | TGI | 2.52 µM |
| O=C1NC(c2ccccc2)(c2ccccc2)C(=O)N1Cc1cn(-c2cc3ccccc3oc2=O)nn1 | NCI60 single-dose screen | 10 µM | – | growth percentage | 77.1% |
| C#C[C@@]1(O)[C@@H](CO)O[C@@H](n2cc(I)c3c(N)ncnc32)[C@@H]1O | SRB | NCI-60 screen | – | TGI | 6.28 µM and 12 µM |
| Cc1cc(C)n(-c2nc(-c3ccc(Cl)cc3)c3c(NC(=O)c4ccccc4)nnc-3[nH]2)n1 | SRB | 10 µM, NCI60 single-dose screen | relative to: untreated | cell growth | 96.7% |
| CCCC(CCC)C(=O)OCc1cn(-c2c3ccccc3nc3ccccc23)nn1 | NCI60 single-dose screen | 10 µM | – | growth percentage | 98.4% |

Some of these lines once more:
| SMILES | test | conditions | scale | quantity | result |
| --- | --- | --- | --- | --- | --- |
| CCCCN1CCN(c2ccc3[nH]c(-c4ccc5[nH]c(-c6ccc(C(F)(F)F)cc6)nc5c4)nc3c2)CC1 | SRB | 10 µM, 48 h | – | growth percent | -78.5% |
| Cc1cc2c(cc1C)[n+](Cc1ccc3ccccc3c1)cn2Cc1ccc2ccccc2c1.[Br-] | NCI60 five-dose screen | – | – | TGI | 2.47 µM |
| S=C([S][Au-][P+](CCCCCC[P+]([Au-][S]C(=S)n1cccn1)(c1ccccc1)c1ccccc1)(c1ccccc1)c1ccccc1)n1cccn1 | cell growth, NCI-60 screen | non-small cell lung cancer | – | log10 TGI | -4.37 |
